Experimental data of several laboratories.
Parts stem from different laboratories: compare values within a part only. Positions count from the first letter of the parent shown.

Set 1
Target: CCNA1, cyclin fold, Cln2 fusion (human)
Method: yeast growth competition, sequencing
Matrix: yeast
Setting: weak parent motif
Baseline: not given
Reading: higher = stronger binding
Quantity: normalised enrichment score
Parent: ORC1 docking peptide (human); PRARKRLELGNLG; partner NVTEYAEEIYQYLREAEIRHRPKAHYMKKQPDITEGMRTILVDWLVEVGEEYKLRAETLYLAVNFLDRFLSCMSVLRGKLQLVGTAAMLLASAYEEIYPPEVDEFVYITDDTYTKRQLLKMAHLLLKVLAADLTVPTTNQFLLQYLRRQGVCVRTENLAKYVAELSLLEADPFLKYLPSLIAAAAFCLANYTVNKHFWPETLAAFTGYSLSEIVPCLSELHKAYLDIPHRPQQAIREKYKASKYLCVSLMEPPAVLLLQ
L12Y: 0.416
L9D: 0.226
N11C: 0.563

Set 2
Target: Max-binding protein MNT, bHLH-zipper, MAX partner unstated (MNT, Homo sapiens, UniProt Q99583, residues 220-300)
Method: protein-binding microarray
Molecule type: double-stranded DNA, one strand shown
Matrix: in vitro
Concentration: not given
Setting: k-mer, scored over probes, only values ≥0.25
Reading: higher = stronger binding
Quantity: E-score
Construct (chain): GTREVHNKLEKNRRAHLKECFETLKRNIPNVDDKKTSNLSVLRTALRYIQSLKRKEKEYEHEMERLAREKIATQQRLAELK
ATTCCACG: 0.361
ACGCGGCG: 0.361
ACACGAGC: 0.289
CCCGCCCC: 0.409
GTGTGAAC: 0.283
ACATGGAC: 0.3
AACACGCT: 0.393

Set 3
Target: Sal-like protein 4, full length isoform B (SALL4, Homo sapiens, UniProt Q9UJQ4-2, residues 1-616)
Method: universal PBM
Molecule type: double-stranded DNA, one strand shown
Matrix: in vitro
Concentration: not given
Setting: 8-mer, flanks averaged, mean of replicates
Reading: higher = stronger binding
Quantity: E-score
Residues (chain): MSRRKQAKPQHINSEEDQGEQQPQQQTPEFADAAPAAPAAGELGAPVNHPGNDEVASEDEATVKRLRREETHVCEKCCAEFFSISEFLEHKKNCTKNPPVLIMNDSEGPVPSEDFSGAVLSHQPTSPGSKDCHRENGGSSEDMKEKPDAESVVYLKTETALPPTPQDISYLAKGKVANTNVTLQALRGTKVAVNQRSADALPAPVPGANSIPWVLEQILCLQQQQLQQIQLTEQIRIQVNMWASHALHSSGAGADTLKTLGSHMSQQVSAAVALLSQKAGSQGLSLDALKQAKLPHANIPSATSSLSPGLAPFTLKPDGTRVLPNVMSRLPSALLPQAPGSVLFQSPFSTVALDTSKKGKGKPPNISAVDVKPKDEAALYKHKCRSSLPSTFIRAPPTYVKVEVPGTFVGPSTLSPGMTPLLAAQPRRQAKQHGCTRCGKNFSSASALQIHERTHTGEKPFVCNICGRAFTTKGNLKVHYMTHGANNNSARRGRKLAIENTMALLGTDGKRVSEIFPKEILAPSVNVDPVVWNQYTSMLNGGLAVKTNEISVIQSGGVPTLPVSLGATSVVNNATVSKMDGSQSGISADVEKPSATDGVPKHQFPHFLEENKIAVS
CAAATGAA: 0.277
GGAGAAAA: 0.0654
AAGTGAGT: -0.0445
CCGGCGTA: -0.366
ATGCCCGC: -0.194
ACGGTAGT: -0.066

Mixed results
PhoQ, residues 284 288 289 292 302 303 TTCLQL  fold induction (PhoP, residues 12 14 15 18 19 SQCLL (Escherichia coli, UniProt P23836); Sort-seq, item: YFP reporter; E. coli; PhoQ-PhoP variant library, together with: 10 µM Mg2+; baseline: high Mg2+ state, higher = stronger signaling): 4.47
